Results pooled from the literature.
Lines come from different studies, so protocols differ. Several values in a cell are separate wells, animals, samples, runs or records.
U2AF2: U2AF2 148-342 (Homo sapiens, UniProt P26368)
Sequence of UniProt P26368 (whole entry, looked up): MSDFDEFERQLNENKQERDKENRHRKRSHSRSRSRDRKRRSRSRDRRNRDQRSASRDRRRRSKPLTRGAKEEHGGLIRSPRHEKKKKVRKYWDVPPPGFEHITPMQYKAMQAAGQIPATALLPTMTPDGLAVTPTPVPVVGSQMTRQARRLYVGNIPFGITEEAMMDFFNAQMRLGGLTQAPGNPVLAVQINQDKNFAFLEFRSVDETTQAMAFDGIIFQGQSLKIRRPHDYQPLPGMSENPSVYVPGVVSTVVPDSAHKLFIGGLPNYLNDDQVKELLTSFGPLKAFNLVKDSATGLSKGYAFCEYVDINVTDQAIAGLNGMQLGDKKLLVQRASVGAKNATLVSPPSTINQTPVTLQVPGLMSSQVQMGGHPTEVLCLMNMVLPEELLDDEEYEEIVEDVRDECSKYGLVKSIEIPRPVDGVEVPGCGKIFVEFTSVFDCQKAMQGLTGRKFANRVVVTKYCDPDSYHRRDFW
T1: itself; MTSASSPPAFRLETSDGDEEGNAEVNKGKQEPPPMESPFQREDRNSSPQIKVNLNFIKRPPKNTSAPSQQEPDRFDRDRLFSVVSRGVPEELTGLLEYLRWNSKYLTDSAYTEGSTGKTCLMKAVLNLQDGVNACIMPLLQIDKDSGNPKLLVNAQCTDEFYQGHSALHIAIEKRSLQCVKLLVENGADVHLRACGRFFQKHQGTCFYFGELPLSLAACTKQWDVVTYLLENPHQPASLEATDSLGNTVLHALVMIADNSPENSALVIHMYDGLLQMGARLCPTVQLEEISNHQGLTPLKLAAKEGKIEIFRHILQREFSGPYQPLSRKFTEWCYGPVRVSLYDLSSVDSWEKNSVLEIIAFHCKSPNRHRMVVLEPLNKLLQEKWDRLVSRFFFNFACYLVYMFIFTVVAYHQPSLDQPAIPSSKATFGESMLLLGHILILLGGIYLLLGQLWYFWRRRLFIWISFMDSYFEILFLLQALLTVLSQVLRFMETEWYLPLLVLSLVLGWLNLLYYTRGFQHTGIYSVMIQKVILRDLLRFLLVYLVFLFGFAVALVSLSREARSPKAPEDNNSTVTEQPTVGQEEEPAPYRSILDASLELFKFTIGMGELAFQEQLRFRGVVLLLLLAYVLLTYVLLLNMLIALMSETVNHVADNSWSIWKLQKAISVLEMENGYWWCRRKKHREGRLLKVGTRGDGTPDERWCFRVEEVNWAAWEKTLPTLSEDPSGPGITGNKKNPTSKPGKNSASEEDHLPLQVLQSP
T2: itself; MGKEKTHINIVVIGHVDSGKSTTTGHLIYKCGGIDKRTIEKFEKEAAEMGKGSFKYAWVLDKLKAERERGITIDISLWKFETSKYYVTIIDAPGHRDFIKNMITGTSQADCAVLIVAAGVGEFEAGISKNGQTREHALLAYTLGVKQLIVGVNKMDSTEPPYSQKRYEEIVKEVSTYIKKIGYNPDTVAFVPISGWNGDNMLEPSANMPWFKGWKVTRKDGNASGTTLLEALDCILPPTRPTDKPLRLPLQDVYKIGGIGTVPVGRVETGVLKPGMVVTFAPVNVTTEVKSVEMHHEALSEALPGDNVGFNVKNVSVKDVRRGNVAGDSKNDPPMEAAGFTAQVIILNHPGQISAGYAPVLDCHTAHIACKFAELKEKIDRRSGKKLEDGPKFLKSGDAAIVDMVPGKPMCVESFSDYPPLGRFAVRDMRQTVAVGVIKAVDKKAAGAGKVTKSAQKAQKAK
T3: itself; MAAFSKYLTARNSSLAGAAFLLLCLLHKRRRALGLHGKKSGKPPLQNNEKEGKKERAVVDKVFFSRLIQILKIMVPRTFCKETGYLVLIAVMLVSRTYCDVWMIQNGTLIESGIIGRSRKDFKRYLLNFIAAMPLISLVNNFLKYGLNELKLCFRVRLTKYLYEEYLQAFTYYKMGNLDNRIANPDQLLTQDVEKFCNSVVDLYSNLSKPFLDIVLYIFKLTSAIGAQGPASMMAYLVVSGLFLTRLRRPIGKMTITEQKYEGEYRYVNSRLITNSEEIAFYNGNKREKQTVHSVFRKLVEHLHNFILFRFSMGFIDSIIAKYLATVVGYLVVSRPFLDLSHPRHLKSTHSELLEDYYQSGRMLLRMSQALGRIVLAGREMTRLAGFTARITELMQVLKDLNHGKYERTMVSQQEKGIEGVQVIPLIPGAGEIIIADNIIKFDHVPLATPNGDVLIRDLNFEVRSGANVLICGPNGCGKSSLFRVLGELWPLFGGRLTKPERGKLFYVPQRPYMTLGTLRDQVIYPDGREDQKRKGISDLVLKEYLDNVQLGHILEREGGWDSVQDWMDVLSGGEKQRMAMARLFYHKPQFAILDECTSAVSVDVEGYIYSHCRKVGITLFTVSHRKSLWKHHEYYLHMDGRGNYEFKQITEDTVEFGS
T4: itself; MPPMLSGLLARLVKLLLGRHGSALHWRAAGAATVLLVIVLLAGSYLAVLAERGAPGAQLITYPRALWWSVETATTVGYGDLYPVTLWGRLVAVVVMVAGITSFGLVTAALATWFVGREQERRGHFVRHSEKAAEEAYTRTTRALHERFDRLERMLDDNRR
B1: PPM1B (human); sequence looked up; chain GAFLDKPKTEKHNAHGAGNGLRYGLSSMQGWRVEMEDAHTAVVGIPHGLEDWSFFAVYDGHAGSRVANYCSTHLLEHITTNEDFRAAGKSGSALELSVENVKNGIRTGFLKIDEYMRNFSDLRNGMDRSGSTAVGVMISPKHIYFINCGDSRAVLYRNGQVCFSTQDHKPCNPREKERIQNAGGSVMIQRVNGSLAVSRALGDYDYKCVDGKGPTEQLVSPEPEVYEILRAEEDEFIILACDGIWDVMSNEELCEYVKSRLEVSDDLENVCNWVVDTCLHKGSRDNMSIVLVCFSNAPKVSDEAVKKDSELDKHLESRVEEIMEKSGEEGMPDLAHVMRILSAENIPNLPPGGGLAGKRNVIEAVYSRLNPHRESDGASDEAEESGSQGKLVEALRQMRINHRGNYRQLLEEMLTSYRLAKVEGEESPAEPAATATSSNSDAGNPVTMQESHTESESGLAELDSSNEDAGTKMSGEKI
B2: ABCD3 (Homo sapiens, UniProt P28288); chain MAAFSKYLTARNSSLAGAAFLLLCLLHKRRRALGLHGKKSGKPPLQNNEKEGKKERAVVDKVFFSRLIQILKIMVPRTFCKETGYLVLIAVMLVSRTYCDVWMIQNGTLIESGIIGRSRKDFKRYLLNFIAAMPLISLVNNFLKYGLNELKLCFRVRLTKYLYEEYLQAFTYYKMGNLDNRIANPDQLLTQDVEKFCNSVVDLYSNLSKPFLDIVLYIFKLTSAIGAQGPASMMAYLVVSGLFLTRLRRPIGKMTITEQKYEGEYRYVNSRLITNSEEIAFYNGNKREKQTVHSVFRKLVEHLHNFILFRFSMGFIDSIIAKYLATVVGYLVVSRPFLDLSHPRHLKSTHSELLEDYYQSGRMLLRMSQALGRIVLAGREMTRLAGFTARITELMQVLKDLNHGKYERTMVSQQEKGIEGVQVIPLIPGAGEIIIADNIIKFDHVPLATPNGDVLIRDLNFEVRSGANVLICGPNGCGKSSLFRVLGELWPLFGGRLTKPERGKLFYVPQRPYMTLGTLRDQVIYPDGREDQKRKGISDLVLKEYLDNVQLGHILEREGGWDSVQDWMDVLSGGEKQRMAMARLFYHKPQFAILDECTSAVSVDVEGYIYSHCRKVGITLFTVSHRKSLWKHHEYYLHMDGRGNYEFKQITEDTVEFGS
B3: kcsA (Streptomyces lividans, UniProt P0A334); chain MPPMLSGLLARLVKLLLGRHGSALHWRAAGAATVLLVIVLLAGSYLAVLAERGAPGAQLITYPRALWWSVETATTVGYGDLYPVTLWGRLVAVVVMVAGITSFGLVTAALATWFVGREQERRGHFVRHSEKAAEEAYTRTTRALHERFDRLERMLDDNRR
B4: human DHRS2; sequence looked up; chain SSTGIDRKGVLANRVAVVTGSTSGIGFAIARRLARDGAHVVISSRKQQNVDRAMAKLQGEGLSVAGIVCHVGKAEDREQLVAKALEHCGGVDFLVCSAGVNPLVGSTLGTSEQIWDKILSVNVKSPALLLSQLLPYMENRRGAVILVSSIAAYNPVVALGVYNVSKTALLGLTRTLALELAPKDIRVNCVVPGIIKTDFSKVFHGNESLWKNFKEHHQLQRIGESEDCAGIVSFLCSPDASYVNGENIAVAGYSTRL

Substance | tested on | test | test system | setting | how to read | quantity | result
popZ fragment (Caulobacter crescentus) | itself | AUC | – | 25 °C | – | subunits per oligomer | 6
gene 82 (mycobacteriophage) | itself | SEC | – | – | – | subunits per oligomer | 3
Maackia amurensis seed lectin (Maackia amurensis) | itself | nonreducing SDS-PAGE | – | – | – | subunits per oligomer | 2
B1 (PPM1B) | CYB5R4 knockout human cells | PP6 interaction, 3xFLAG-PP6C IP-MS | – | concentration not given | reference: CYB5R4 KO over parental | log2 fold change | -0.42
Trpv2 (Rattus norvegicus, UniProt Q9WUD2) | T1, itself | SEC | – | – | – | subunits per oligomer | 4
EEF1A1 (Oryctolagus cuniculus, UniProt P68105) | T2, itself | SAXS | – | – | – | subunits per oligomer | 2
B2 (ABCD3) | T3, itself | cryo-EM | – | added: phytanoyl-CoA | – | subunits per oligomer | 2
MXAN_1565 GAF-AAA+ domains (Myxococcus xanthus) | itself | cross-linking | – | – | – | subunits per oligomer | 2
csm6 (Thermococcus onnurineus) | itself | X-ray crystallography | – | apo, wild type | – | subunits per oligomer | 2
B3 (kcsA) | T4, itself | SDS-PAGE | – | – | – | subunits per oligomer | 4
CAMK2D F368A/L405M (Homo sapiens) | itself | mass photometry | – | – | – | subunits per oligomer | 2
Cas5 full length (Moraxella) | itself | SEC-MALS | – | – | – | subunits per oligomer | 2
ALDH7A1 fragment (Homo sapiens) | itself | AUC | – | added: NAD 1 mM | – | subunits per oligomer | 4
sodN mature E17R/R47E (Streptomyces coelicolor) | itself | SEC | – | – | – | subunits per oligomer | 6 and 3
CAUUCAUUC (ssRNA) | U2AF2 | sequencing of bound RNA | RNA | motif only | – | Kd | 740 nM
Eco8 OLD nuclease (Escherichia coli) | itself | cryo-EM | – | – | – | subunits per oligomer | 4
B4 (human DHRS2) | CYB5R4 knockout human cells | PP4 interaction, 3xFLAG-PP4C IP-MS | – | concentration not given | reference: CYB5R4 KO over parental | log2 fold change | -4.71
CDKN2A (Homo sapiens, UniProt Q8N726) | itself | SEC-MALS | – | – | – | subunits per oligomer | 10
IGKC CL domain (Homo sapiens) | itself | SEC | – | – | – | subunits per oligomer | 2
TPI1 (Homo sapiens) | itself | native MS | – | not purified | – | subunits per oligomer | 2
ACAT1 fragment, pY407 (Homo sapiens) | itself | sucrose density ultracentrifugation | – | phosphorylated, wild type | – | subunits per oligomer | 4
ERF fragment (Homo sapiens) | itself | crystal structure | – | oxidised, Cys72 disulfide, added: DNA | – | subunits per oligomer | 4
UUUUUCUUU (ssRNA) | U2AF2 | sequencing of bound RNA | RNA | motif only | – | Kd | 560 nM

A few entries again:
Substance | tested on | test | test system | setting | how to read | quantity | result
B4 (human DHRS2) | CYB5R4 knockout human cells | PP4 interaction, 3xFLAG-PP4C IP-MS | – | concentration not given | reference: CYB5R4 KO over parental | log2 fold change | -4.71
CDKN2A (Homo sapiens, UniProt Q8N726) | itself | SEC-MALS | – | – | – | subunits per oligomer | 10
IGKC CL domain (Homo sapiens) | itself | SEC | – | – | – | subunits per oligomer | 2
